Assay results from different studies.
Numbered parts are unrelated; each lists some results of a single study. Substitutions count along the parent as printed.

Set 1
Target: ABI1, truncated, D143A, DHFR fusion (Arabidopsis thaliana)
Technique: DHFR PCA, deep sequencing
Medium: yeast
Notes: methotrexate growth selection, single substitutions
Together with: (+)-ABA 0.11 µM
Baseline: wild-type fitted maximum
Direction: higher = stronger binding
Parent: PYL1, truncated, DHFR fusion (Arabidopsis thaliana); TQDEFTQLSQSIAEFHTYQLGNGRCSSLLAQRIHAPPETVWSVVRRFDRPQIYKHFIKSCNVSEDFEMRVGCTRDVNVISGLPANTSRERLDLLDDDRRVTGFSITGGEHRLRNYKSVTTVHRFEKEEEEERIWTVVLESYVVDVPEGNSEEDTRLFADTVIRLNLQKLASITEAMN; partner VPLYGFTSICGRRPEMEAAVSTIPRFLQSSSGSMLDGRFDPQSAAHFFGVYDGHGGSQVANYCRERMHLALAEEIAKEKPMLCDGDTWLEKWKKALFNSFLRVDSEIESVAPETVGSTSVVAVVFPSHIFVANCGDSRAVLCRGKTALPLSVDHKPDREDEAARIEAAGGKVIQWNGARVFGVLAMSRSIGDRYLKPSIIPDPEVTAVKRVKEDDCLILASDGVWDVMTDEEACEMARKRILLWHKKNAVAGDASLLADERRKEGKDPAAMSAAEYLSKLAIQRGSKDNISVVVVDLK
`I57K`: “relative binding score” -0.945%.
`S80P`: “relative binding score” -3.52%.
For `R111P`, “relative binding score” read 19%.
`P37L` — result for “relative binding score”: 5.72%.
For `H16L`, “relative binding score” read -1.99%.
Under “relative binding score”, `S42C` is recorded as 1.65%.

Set 2
Target: Fragile X messenger ribonucleoprotein 1, C-terminal low-complexity region (Fmr1, Mus musculus, UniProt P35922)
Technique: RNA Bind-n-Seq
Form: RNA
Medium: in vitro
Concentration: 200 nM
Notes: whole 134-nt RNA, ends assumed
Together with: 150 mM LiCl
Baseline: input library
Direction: higher = stronger binding
Library: 7-deaza-guanosine replaces G
The log2 enrichment of `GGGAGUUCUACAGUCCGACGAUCAAGUCCUGUGCUACACAUCGUAUGUACCGAAUCGGGGUUUGGGGAAAGGGGAGGGGAAAGUAUUAUGUUACGCCGUUCGGAUCUGCACUUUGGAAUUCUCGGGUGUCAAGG` is reported as -0.0604.
For `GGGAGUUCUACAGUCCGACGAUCUGUGCUACACAUCGUAUGUACCGAAUCGGGGAAAAAAAGGGGAAAAAAAGGGGUUUUUGGGGAAAGUAUUAUGUUACGCCGUUCGGAUCUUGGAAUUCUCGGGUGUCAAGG`, the log2 enrichment was -0.422.
`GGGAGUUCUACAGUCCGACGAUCCUGUGCUACACAUCGUAUGUACCGAAUCGGGCCCCCCCGGGGCCCCCCCGGGGCCCCCCCGGAAAGUAUUAUGUUACGCCGUUCGGAUCUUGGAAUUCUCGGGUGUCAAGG` gave a log2 enrichment of 0.0235.
`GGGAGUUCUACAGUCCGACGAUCUAGUUUAUGCCAACGUGACUUCAUUCAUACAGAUGAACCAAGGAUCGGGAUAGCAGUAUAAAAUUAGAAUCAAGACAGCUGACUGCUCAGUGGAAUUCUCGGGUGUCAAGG` has a log2 enrichment of -3.75.
The log2 enrichment of `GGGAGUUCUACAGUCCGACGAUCACCAUGCAGGUGGGCAACUUUGGGAAGUGGGGCAAGGGGGGGAUAGGGAGGGGGGUAACACUUUGGGAACAGGUGGUCCCAGGUCGUUUCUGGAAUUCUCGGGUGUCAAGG` is reported as 1.46.
`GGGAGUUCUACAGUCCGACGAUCCAAGUCCUGUGCUACACAUCGUAUGUACCGAAUCGGGCCCGGGGCCCGGCCCGGGAAAGUAUUAUGUUACGCCGUUCGGAUCUGCACUUCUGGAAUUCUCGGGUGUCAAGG` has a log2 enrichment of -2.63.
`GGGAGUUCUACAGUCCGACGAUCAAGUCCUGUGCUACACAUCGUAUGUACCGAAUCGUGUGUGUGUGUGUGUGUGUGUGUAAAGUAUUAUGUUACGCCGUUCGGAUCUGCACUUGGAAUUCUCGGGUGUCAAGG` gave a log2 enrichment of -0.407.
`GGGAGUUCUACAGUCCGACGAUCGCAGGAAGUAAAAACAAAUGGAAAUGCUUCGGAUAGUGGCAGGGGUGGGGGUUGCUAAGGAAAAGGUGGGAUGGGAGUGGGUAAAGAGUUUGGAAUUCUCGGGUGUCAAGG` has a log2 enrichment of 1.35.

Set 3
Target: CCND2, cyclin fold, Cln2 fusion (human)
Technique: yeast growth competition, sequencing
Medium: yeast
Notes: weak parent motif
Baseline: not given
Direction: higher = stronger binding
Parent: MASTL docking peptide (human); PMIAKNLMCELDE
For `PMIAVNLMCELDE [K5V]`, “normalised enrichment score” read -0.112.
For `PMIAKNLMPELDE [C9P]`, “normalised enrichment score” read 0.432.
Under “normalised enrichment score”, `PMIAKNLMCEPDE [L11P]` is recorded as 0.078.
`PMIAKNLMCELSE [D12S]`: “normalised enrichment score” 0.195.
`PMIAKNKMCELDE [L7K]` — result for “normalised enrichment score”: 0.444.
`PMAAKNLMCELDE [I3A]` — result for “normalised enrichment score”: 0.0383.
`PMIAKNLMMELDE [C9M]`: “normalised enrichment score” -0.0826.

Mixed results
The fold induction of `PhoQ, residues 284 288 289 292 302 303 AANNSF` is reported as 1.21 (PhoP, residues 12 14 15 18 19 SMASL (Escherichia coli, UniProt P23836); Sort-seq, item: YFP reporter; E. coli; PhoQ-PhoP variant library, together with: 10 µM Mg2+; baseline: high Mg2+ state, higher = stronger signaling).

Repeated from above (set 1):
`I57K`: “relative binding score” -0.945%.
`S80P`: “relative binding score” -3.52%.
